Experimental data pooled from the literature.
Compare with care: the assays were run in different laboratories.

The EC50 of `CCOC(=O)Nc1ccc(NCc2ccc(F)cc2)nc1N` is reported as > 100 µM (SARS-CoV-2; viral replication, high-content imaging screen; cell-based).
For `COc1ccc(C[C@@H]2NC(=O)[C@@H](NC(=O)c3ccc(S(C)(=O)=O)cc3)Cc3ccc(cc3)OC[C@H](CC(C)C)NC(=O)CN(CC3CC3)C(=O)[C@@H](C)NC2=O)cc1`, the Emax was 19.4% (Lassa mammarenavirus; viral replication; Huh-7; concentration not given).
`Cc1cc(O[C@@H](CCC(F)(F)F)c2ccc(C(=O)NCCC(=O)O)cc2)cc(C)c1-c1ccc(C(C)(C)C)cc1` has an EC50 of > 6.31 µM (SARS-CoV-2; viral replication, high-content imaging screen; cell-based).
With `Nc1nccc(N2CCOC(CC(c3ccccc3)c3ccccc3)C2)n1` (stereo not drawn) the remaining activity was 46% (Lassa mammarenavirus; viral replication; Huh-7; 10 µM, 72 h).
With `O=C(N[C@H]1CN2CCC1CC2)c1cc2cccc(Cl)c2s1` the EC50 was > 100 µM (SARS-CoV-2; viral replication, GFP plate reader screen; BetaCov/Belgium/GHB-03021/2020; cell-based).
`CCOc1ccccc1CNCc1cccn1-c1nnc(N2CCN(c3ccccc3)CC2)s1` gave an efficacy of 42.4% (SARS-CoV-2; cytopathic effect; USA_WA1/2020; round 1, 5-point).
The viability difference of `CNC(=O)[C@@H](NC(=O)[C@H](CC(C)C)[C@H](O)C(=O)NO)C(C)(C)C` is reported as -41% (Daboia russelii; C2C12; 100 µM, together with: Daboia russelii venom KL; baseline: venom alone).
`Clc1cnn(CCCCN2CCN(c3ncccn3)CC2)c1` has an EC50 of > 100 µM (SARS-CoV-2; viral replication, high-content imaging screen; cell-based).
With `Cc1cc(F)cc(C(=O)N2CC(=O)N[C@@H](CC(C)C)c3nc(cs3)C(=O)N[C@@H](Cc3ccccc3)c3nc(C)nn3CC(=O)N[C@@H](C(C)C)C2)c1` the remaining activity was 83% (Lassa mammarenavirus; viral replication; Huh-7; 10 µM, 72 h).
With `Clc1ccccc1C1(c2ccnc(-c3ccccc3)n2)CCNCC1` the maximum response was 96.2% (SARS-CoV-2; cytopathic effect; USA_WA1/2020; round 1, 5-point).
With `CC1c2ccccc2C(CCCN(C)C)c2cc(C(F)(F)F)ccc21` (stereo not drawn) the EC50 was 10.5 µM (SARS-CoV-2; viral replication, high-content imaging screen; BetaCov/Belgium/GHB-03021/2020; cell-based).
With `CCc1c(C(=O)C(N)=O)c2c(OCC(=O)O)cccc2n1Cc1ccccc1` the viability difference was -48.5% (Daboia russelii; C2C12; 100 µM, together with: Daboia russelii venom TN; baseline: venom alone).
The remaining activity of `CCOC(=O)CN1CCC2(CCCN(C(=O)c3cc(F)ccc3F)C2)C1` (stereo not drawn) is reported as 50% (Lassa mammarenavirus; viral replication; Huh-7; 10 µM, 72 h).
`COc1cccc(-c2ccccc2NC(=O)C2CCN(Cc3ccccc3F)CC2)c1` has an efficacy of 99% (SARS-CoV-2; cytopathic effect; USA_WA1/2020; round 1, 5-point).
`COC(=O)N[C@H](C(=O)N1CCC[C@H]1c1nc(-c2ccc(-c3ccc(-c4c[nH]c([C@@H]5CCCN5C(=O)[C@@H](NC(=O)OC)C(C)C)n4)cc3)cc2)c[nH]1)C(C)C` gave an EC50 of > 100 µM (SARS-CoV-2; viral replication, GFP plate reader screen; cell-based).
The remaining activity of `Cc1nc2n(n1)CC(=O)N[C@@H](C(C)C)CN(Cc1ccncc1)CC(=O)N[C@@H](CC(C)C)c1nc(cs1)C(=O)N[C@H]2Cc1ccccc1` is reported as 111% (Lassa mammarenavirus; viral replication; Huh-7; 10 µM, 72 h).
The EC50 of `O=C(O)CCc1nc(-c2ccccc2)c(-c2ccccc2)o1` is reported as 11.8 µM (SARS-CoV-2; viral replication, GFP plate reader screen; cell-based).
`CCc1ccc(Sc2cc(C(=O)NCCCN3CCCC(C)C3)c3ccccc3n2)cc1` (stereo not drawn) has an efficacy of 102% (SARS-CoV-2; cytopathic effect; USA_WA1/2020; first round 5-point).
The remaining activity of `COc1ccc2cc1OCCN(Cc1cc(CN3CCCCC3)cs1)CC(=O)N[C@H](C(C)C)C(=O)NCCn1ccnc1-2` is reported as 60% (Lassa mammarenavirus; viral replication; Huh-7; 10 µM, 72 h).
The efficacy of `CN(C)c1cccc(C(=O)NCC2CCN(c3cc(-c4ccc(Cl)cc4)n[nH]3)CC2)c1` is reported as 74.4% (SARS-CoV-2; cytopathic effect; USA_WA1/2020; round 2, 5-point).
`Nc1ncnc2c([C@@H]3N[C@H](CO)[C@@H](O)[C@H]3O)c[nH]c12` gave an inhibition of 55% (Lassa mammarenavirus; viral replication; HeLa, Josiah; 50 µM).
With `Cc1ccc2c(NC(C)c3ccccc3)nc(N3CCNCC3)nc2c1` (stereo not drawn) the maximum response was 83.8% (SARS-CoV-2; cytopathic effect; USA_WA1/2020; retest 8-point).
The EC50 of `CC1=C(/C=C/C(C)=C/C=C/C(C)=C/C(=O)Nc2ccc(O)cc2)C(C)(C)CCC1` is reported as > 100 µM (SARS-CoV-2; viral replication, GFP plate reader screen; cell-based).
`CCCc1cnc(C)nc1N1C[C@@H]2NC(=O)CN(CCOC)C(=O)CCc3ccc(OC)c(c3)Oc3cccc(c3)CO[C@H]2C1` has an Emax of 60.4% (Lassa mammarenavirus; viral replication; Huh-7; concentration not given).
For `CC1CCCN(CCCNC(=O)c2cc(Sc3ccc(F)cc3)nc3ccccc23)C1` (stereo not drawn), the maximum response was 92.9% (SARS-CoV-2; cytopathic effect; USA_WA1/2020; retest 8-point).
`Cc1cccnc1C(=O)N(CC#Cc1ccccc1)CC(C)C` gave a remaining activity of 12% (Lassa mammarenavirus; viral replication; Huh-7; 10 µM, 72 h).
`COc1ccc(-c2cn3c(n2)sc2cc(C(=O)NCCCN4CCCCCC4)ccc23)cc1` gave an efficacy of 78.5% (SARS-CoV-2; cytopathic effect; USA_WA1/2020; round 2, 5-point).

Repeated from above:
With `Nc1nccc(N2CCOC(CC(c3ccccc3)c3ccccc3)C2)n1` (stereo not drawn) the remaining activity was 46% (Lassa mammarenavirus; viral replication; Huh-7; 10 µM, 72 h).
With `O=C(N[C@H]1CN2CCC1CC2)c1cc2cccc(Cl)c2s1` the EC50 was > 100 µM (SARS-CoV-2; viral replication, GFP plate reader screen; BetaCov/Belgium/GHB-03021/2020; cell-based).
`CCOc1ccccc1CNCc1cccn1-c1nnc(N2CCN(c3ccccc3)CC2)s1` gave an efficacy of 42.4% (SARS-CoV-2; cytopathic effect; USA_WA1/2020; round 1, 5-point).
The viability difference of `CNC(=O)[C@@H](NC(=O)[C@H](CC(C)C)[C@H](O)C(=O)NO)C(C)(C)C` is reported as -41% (Daboia russelii; C2C12; 100 µM, together with: Daboia russelii venom KL; baseline: venom alone).
